Measured values gathered from unrelated publications.
± gives the spread as reported.
DRD3: D(3) dopamine receptor (DRD3, Homo sapiens, UniProt P35462)
TNKS2: Poly [ADP-ribose] polymerase tankyrase-2 (TNKS2, Homo sapiens, UniProt Q9H2K2)

| Structure (SMILES) | target | test | test system | conditions | IC50 |
| --- | --- | --- | --- | --- | --- |
| CC[C@H](C)[C@H](NC(=O)[C@@H](N)CC(C)C)C(=O)N[C@@H](CCCCN)C(=O)N[C@H](C(=O)N[C@@H](CCCCN)C(=O)N[C@@H](CCCNC(=N)N)C(=O)N[C@@H](CCCCN)C(=O)N[C@@H](CCCNC(=N)N)C(=O)N[C@@H](CCCCN)C(=O)N[C@@H](CCCCN)C(=O)O)[C@@H](C)O | Coagulation factor V, activated factor Va (F5, Homo sapiens, UniProt P12259) | prothrombinase activity, inhibitor |  |  | 1 µM |
| Cc1[nH]c(C)c(S(=O)(=O)N2CCC(F)(F)C2)c1C(=O)Nc1ccc(C(F)(F)F)c(Cl)c1 | DRD3 | Go activation, antagonist, BRET |  | together with: dopamine | > 100 µM |
| O=c1[nH]c2c(nnn2Cc2ccccc2C(F)(F)F)c2ccc(F)cc12 | TNKS2 | ADP-ribosyltransferase activity, inhibitor, NAD+ consumption fluorescence |  |  | 0.389 µM |
| CC[C@@H]1[C@H](F)C(=O)N[C@@H]1COc1nccc2cc(C(N)=O)c(OC)cc12 | Mitogen-activated protein kinase 9 (MAPK9, Homo sapiens, UniProt P45984) | ATP-site binding, ActivX KiNativ profiling | THP-1 cell lysate | Lys1 JNK2 probe site | > 5 µM |
| C=CC(=O)c1ccc2ccccc2c1 | Coagulation factor XIII A chain (F13A1, Homo sapiens, UniProt P00488) | enzyme activity, inhibitor, biotin-pentylamine incorporation |  | without DTT | 0.006 ± 0.005 µM |
| N#Cc1nc2c(nc1C#N)-c1ccccc1/C2=N\OCc1ccccc1 | Ubiquitin carboxyl-terminal hydrolase 8 (USP8, Homo sapiens, UniProt P40818) | enzyme activity, inhibitor, MALDI-TOF DUB |  | 35 min preincubation, 30 °C | 8.39 µM |
| C=C(C)C1CC=C(C)CC1 (centres unmarked) | tyrosinase |  |  | together with: L-tyrosine | 13300 ± 200 µg/mL |
| Cc1ccc(NS(=O)(=O)c2[nH]nc(C)c2C(=O)N2CCC(F)(F)C2)cc1Cl | DRD3 | β-arrestin recruitment, antagonist, PathHunter |  | together with: dopamine EC80 | > 100 µM |
| CCc1ccc(Cn2nnc3c4ccc(F)cc4c(=O)[nH]c32)cc1 | TNKS2 |  |  |  | 0.0288 µM |
| Cc1[nH]c(C)c(S(=O)(=O)Nc2ccc(C(F)(F)F)c(Cl)c2)c1S(=O)(=O)Nc1ccc(C(F)(F)F)c(Cl)c1 | DRD3 | β-arrestin recruitment, antagonist, PathHunter |  | together with: dopamine EC80 | > 100 µM |
| CN1CCN(c2ccc(Nc3ncc4cc(C#N)c(=O)n(C5CCCC5)c4n3)cc2)CC1 | Serine/threonine-protein kinase D1 (PRKD1, Homo sapiens, UniProt Q15139) |  |  |  | 0.0747 µM |
| Cc1[nH]c(C)c(S(=O)(=O)N2CCC(F)(F)C2)c1S(=O)(=O)Nc1ccc(C(F)(F)F)c(Cl)c1 | DRD3 | β-arrestin recruitment, antagonist, PathHunter |  | together with: dopamine EC80 | > 100 µM |
| O=c1[nH]c2c(nnn2C2CCCCC2)c2ccc(F)cc12 | TNKS2 | ADP-ribosyltransferase activity, inhibitor, NAD+ consumption fluorescence |  |  | 1.91 µM |
| CC(C)(C)OC(=O)N1CCN(Cc2ccn(Cc3ccc(Cl)cc3)c(=O)c2O)CC1 | Hypoxia-inducible factor 1-alpha inhibitor (HIF1AN, Homo sapiens, UniProt Q9NWT6) | enzyme activity, inhibitor, HTRF |  | together with: Fe(II) 5 µM | 7.46 µM |
| O=c1c(O)c(-c2ccc(O)c(O)c2)oc2cc(O)cc(O)c12 | Muscarinic acetylcholine receptor M3 (CHRM3, Homo sapiens, UniProt P20309) | DMR desensitization | HT-29 | together with: acetylcholine | 116 µM |
| O=C(O)CC(O)(CC(=O)O)C(=O)O | Hypoxia-inducible factor 1-alpha inhibitor (HIF1AN, Homo sapiens, UniProt Q9NWT6, Y93A) | enzyme activity, inhibitor |  | pH 7 | 140 ± 1 µM |
| CC(=O)N[C@H]1[C@H]([C@H](O)[C@H](O)CO)OC(C(=O)O)=C[C@@H]1O | sialidase | enzyme activity, inhibitor | human, healthy human microbiome sample | together with: 4-MUNANA | 11 ± 1 µM |
| COc1c([C@H]2[C@H](C(=O)Nc3ccnc(C(N)=O)c3)O[C@@](C)(C(F)(F)F)[C@H]2C)ccc(F)c1F | Progesterone receptor (PGR, Homo sapiens, UniProt P06401) | functional activity, antagonist |  |  | 29.6 µM |
| Cc1c(N(C)C)ccc2cc(C(=O)NS(=O)(=O)c3ccccc3-c3ccccc3)oc12 | Histone acetyltransferase KAT6A, residues 194-810 (KAT6A, Homo sapiens, UniProt Q92794) | enzyme activity, inhibitor |  |  | > 20 µM |
| CC(C)Oc1c(NC(=O)c2ccc(N3C(=O)C[C@H](NC(=O)c4cc(F)c(/N=N/c5c(F)cccc5F)c(F)c4)C3=O)cc2)ccc(C(=O)N/N=C/c2c(Cl)cncc2Cl)c1O | DNA gyrase (gyrA/gyrB, Escherichia coli, UniProt P0AES4+P0AES6) | DNA supercoiling, inhibitor |  | 30 min, 37 °C, after 1 h irradiation at 365 nm | > 25 µM |
| O=c1[nH]c2c(nnn2-c2ccccc2)c2ccc(F)cc12 | TNKS2 | ADP-ribosyltransferase activity, inhibitor, NAD+ consumption fluorescence |  |  | > 10 µM |
| Cc1[nH]c(C)c(S(=O)(=O)Nc2ccc(S(N)(=O)=O)c(Cl)c2)c1C(=O)N1CCC(F)(F)C1 | DRD3 | Go activation, antagonist, BRET |  | together with: dopamine | > 100 µM |
| COc1ccc(F)cc1C(=O)NCc1ccc(-c2nn([C@@H](C)C(F)(F)F)c(N)c2C(N)=O)cc1 | Receptor tyrosine-protein kinase erbB-4 (ERBB4, Homo sapiens, UniProt Q15303) | C-terminal tail phosphorylation, PathHunter functional kinase | U2OS | value is top dose tested | > 10 µM |
| Cc1[nH]c(C)c(S(=O)(=O)Nc2ccc(S(C)(=O)=O)c(Cl)c2)c1C(=O)N1CCC(F)(F)C1 | DRD3 | β-arrestin recruitment, antagonist, PathHunter |  | together with: dopamine EC80 | > 100 µM |
| Cc1cccc(Cn2nnc3c4ccc(F)cc4c(=O)[nH]c32)c1 | TNKS2 | ADP-ribosyltransferase activity, inhibitor, NAD+ consumption fluorescence |  |  | 0.107 µM |
| C[C@@H](CC(=O)N1CCCC1)NC(=O)CCS(=O)(=O)Nc1ccc(C(F)(F)F)c(Cl)c1 | DRD3 | β-arrestin recruitment, antagonist, PathHunter |  | together with: dopamine EC80 | > 100 µM |
| O=C(N/N=C/c1ccc(C(F)(F)F)nc1)c1cc2c(s1)CCCC2 | 1-deoxy-D-xylulose-5-phosphate synthase (dxs, Deinococcus radiodurans, UniProt Q9RUB5) | inhibitor |  |  | 51.2 ± 3.1 µM |
| Cc1cnc(NS(=O)(=O)c2c(C)[nH]c(C)c2C(=O)N2CCC(F)(F)C2)cc1Cl | DRD3 | Go activation, antagonist, BRET |  | together with: dopamine | > 100 µM |
| C[C@@H]1O[C@@H](Oc2c(-c3cc(O)c(O)c(O)c3)oc3cc(O)cc(O)c3c2=O)[C@H](O)[C@H](O)[C@H]1O | tyrosinase | enzyme activity, inhibitor |  | together with: L-tyrosine | 133 ± 5.94 µg/mL |

Some of these lines once more:
| Structure (SMILES) | target | test | test system | conditions | IC50 |
| --- | --- | --- | --- | --- | --- |
| Cc1[nH]c(C)c(S(=O)(=O)Nc2ccc(C(F)(F)F)c(Cl)c2)c1S(=O)(=O)Nc1ccc(C(F)(F)F)c(Cl)c1 | DRD3 | β-arrestin recruitment, antagonist, PathHunter |  | together with: dopamine EC80 | > 100 µM |
| CN1CCN(c2ccc(Nc3ncc4cc(C#N)c(=O)n(C5CCCC5)c4n3)cc2)CC1 | Serine/threonine-protein kinase D1 (PRKD1, Homo sapiens, UniProt Q15139) |  |  |  | 0.0747 µM |
| Cc1[nH]c(C)c(S(=O)(=O)N2CCC(F)(F)C2)c1S(=O)(=O)Nc1ccc(C(F)(F)F)c(Cl)c1 | DRD3 | β-arrestin recruitment, antagonist, PathHunter |  | together with: dopamine EC80 | > 100 µM |
| O=c1[nH]c2c(nnn2C2CCCCC2)c2ccc(F)cc12 | TNKS2 | ADP-ribosyltransferase activity, inhibitor, NAD+ consumption fluorescence |  |  | 1.91 µM |
